Experimental data of several laboratories.
Each numbered part is a random draw from the data of one study; scales do not carry over between parts. Changes are numbered by the printed parent chain.
Sequence of UniProt P22607 (whole entry, looked up): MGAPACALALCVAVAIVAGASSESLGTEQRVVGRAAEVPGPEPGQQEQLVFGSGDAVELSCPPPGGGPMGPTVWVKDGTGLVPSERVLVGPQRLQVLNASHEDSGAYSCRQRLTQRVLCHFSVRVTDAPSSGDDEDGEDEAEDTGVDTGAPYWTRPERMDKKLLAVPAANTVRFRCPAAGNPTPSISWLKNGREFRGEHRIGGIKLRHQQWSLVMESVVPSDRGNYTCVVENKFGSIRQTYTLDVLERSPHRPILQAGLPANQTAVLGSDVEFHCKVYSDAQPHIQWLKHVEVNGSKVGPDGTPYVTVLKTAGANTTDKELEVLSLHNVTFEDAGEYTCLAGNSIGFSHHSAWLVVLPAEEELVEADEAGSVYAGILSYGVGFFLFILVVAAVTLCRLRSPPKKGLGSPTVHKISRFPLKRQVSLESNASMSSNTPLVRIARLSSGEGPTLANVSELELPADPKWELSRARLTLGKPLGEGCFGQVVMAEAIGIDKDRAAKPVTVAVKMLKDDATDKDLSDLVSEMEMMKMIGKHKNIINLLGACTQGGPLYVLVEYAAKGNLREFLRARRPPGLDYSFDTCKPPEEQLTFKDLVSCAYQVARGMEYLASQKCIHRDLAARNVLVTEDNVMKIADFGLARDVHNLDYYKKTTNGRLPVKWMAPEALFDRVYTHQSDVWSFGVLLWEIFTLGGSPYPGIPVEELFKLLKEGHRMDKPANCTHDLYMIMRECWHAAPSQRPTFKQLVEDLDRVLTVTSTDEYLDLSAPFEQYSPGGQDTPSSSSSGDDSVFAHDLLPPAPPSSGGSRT
Sequence of UniProt P42336 (whole entry, unmodified, looked up): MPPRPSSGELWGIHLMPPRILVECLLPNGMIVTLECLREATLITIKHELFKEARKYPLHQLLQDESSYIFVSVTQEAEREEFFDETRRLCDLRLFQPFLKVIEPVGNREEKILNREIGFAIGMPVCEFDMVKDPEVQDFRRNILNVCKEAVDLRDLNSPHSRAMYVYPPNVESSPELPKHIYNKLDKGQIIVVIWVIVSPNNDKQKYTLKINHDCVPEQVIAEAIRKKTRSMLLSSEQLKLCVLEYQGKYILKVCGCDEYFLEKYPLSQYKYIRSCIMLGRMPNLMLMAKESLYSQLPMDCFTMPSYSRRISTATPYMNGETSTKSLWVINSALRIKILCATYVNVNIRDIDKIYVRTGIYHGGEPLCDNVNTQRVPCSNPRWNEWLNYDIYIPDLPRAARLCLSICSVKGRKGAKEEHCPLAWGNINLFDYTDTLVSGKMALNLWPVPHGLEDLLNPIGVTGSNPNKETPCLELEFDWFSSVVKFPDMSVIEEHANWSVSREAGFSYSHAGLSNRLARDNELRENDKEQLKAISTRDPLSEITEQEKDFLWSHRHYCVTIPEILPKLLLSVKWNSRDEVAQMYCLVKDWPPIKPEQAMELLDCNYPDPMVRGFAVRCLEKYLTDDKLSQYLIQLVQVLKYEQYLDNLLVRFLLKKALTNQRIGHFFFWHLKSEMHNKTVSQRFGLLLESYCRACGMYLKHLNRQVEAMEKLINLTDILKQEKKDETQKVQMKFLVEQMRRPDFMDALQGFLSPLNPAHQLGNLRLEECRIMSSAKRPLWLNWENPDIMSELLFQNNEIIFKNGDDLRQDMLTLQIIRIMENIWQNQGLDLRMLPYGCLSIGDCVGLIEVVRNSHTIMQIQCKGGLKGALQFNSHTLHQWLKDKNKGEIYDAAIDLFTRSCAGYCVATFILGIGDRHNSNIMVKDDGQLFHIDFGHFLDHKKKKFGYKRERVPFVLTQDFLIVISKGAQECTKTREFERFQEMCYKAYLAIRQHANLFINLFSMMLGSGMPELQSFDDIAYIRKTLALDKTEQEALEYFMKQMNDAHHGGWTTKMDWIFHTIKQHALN

Series 1
Target: Centromere-binding protein 1, full length, His-tagged (CBF1, Saccharomyces cerevisiae, UniProt P17106, residues 1-351)
Sequence of UniProt P17106 (whole entry, looked up): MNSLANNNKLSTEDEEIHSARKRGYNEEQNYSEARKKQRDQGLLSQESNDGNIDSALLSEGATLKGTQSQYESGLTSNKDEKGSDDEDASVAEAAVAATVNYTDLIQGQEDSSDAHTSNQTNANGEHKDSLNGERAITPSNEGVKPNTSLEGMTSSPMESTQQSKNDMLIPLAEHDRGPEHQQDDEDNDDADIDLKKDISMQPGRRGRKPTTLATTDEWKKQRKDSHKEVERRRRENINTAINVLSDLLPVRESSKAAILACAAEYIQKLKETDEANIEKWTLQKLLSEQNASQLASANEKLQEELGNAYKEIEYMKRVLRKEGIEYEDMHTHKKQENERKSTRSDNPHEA
Method: competition protein-binding microarray
Molecule type: double-stranded DNA, one strand shown
Matrix: in vitro
Tested at: 2 µM
Setting: whole 60-bp probe, lowest competitor level
Together with: Pho4 competitor, 0.05 µM
Reading: higher = stronger binding
All sequences stand within: … GTCTTGATTCGCTTGACGCTGCTG
| Sequence | fluorescence intensity |
| --- | --- |
| CTTTCCCGATCTTGCGTGGTGGGTGTAGCACATTTG | 84.4 a.u. |
| CTTCTGTAAATTTGTCACAGTACTTGACGCGCCCCG | 74.6 a.u. |
| ATTGCCTTTGGTGTACTCATGACAAGGGTATATTTT | 83.7 a.u. |
| AGCGAGTTCACCCGTCACGTGCAAAGAGAACTCACA | 4950 a.u. |
| TAATTGATTGGTTACCACGTAAATTCTTGAGCCTTT | 62.5 a.u. |
| GCAGCACCCAAGCTTCCCGTGTATCCATACCACCCT | 52.1 a.u. |
| CCGGTTGATAATACGCAGGTGACGTTTGATAATGTG | 227 a.u. |
| TACGAACAATATCCACACGTGGCCGTTGTAAAGCTT | 967 a.u. |

Series 2
Target: CREBRF, bZIP domain (human)
Method: DHFR protein complementation
Matrix: yeast
Setting: single substitutions, most at no-binding floor
Relative to: wild-type JUN-FOS pair
Reading: higher = stronger binding
Starting sequence: JUN, bZIP domain (human); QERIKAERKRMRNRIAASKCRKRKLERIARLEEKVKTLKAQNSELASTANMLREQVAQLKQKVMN; partner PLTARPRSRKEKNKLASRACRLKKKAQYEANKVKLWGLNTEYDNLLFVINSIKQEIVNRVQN
| Change | binding fitness |
| --- | --- |
| L38I | -1.6 natural log |
| R30W | -1.53 natural log |
| R30T | -1.37 natural log |
| S43R | -1.49 natural log |
| Q41L | -1.48 natural log |
| K39W | -1.57 natural log |
| R30F | -1.44 natural log |
| E44L | -1.36 natural log |

Other studies, line by line
| Compound | tested on | test | system | setting | endpoint | result |
| --- | --- | --- | --- | --- | --- | --- |
| CCCOc1ccc([C@H]2[C@H](C(=O)O)[C@@H](c3ccc4c(c3)OCO4)CN2CC(=O)Nc2c(CC)cccc2CC)cc1 | Fibroblast growth factor receptor 3 (FGFR3, Homo sapiens, UniProt P22607) | cell-free assay, competition with immobilised ligand |  | 1 µM | remaining binding | 100% |
| CCOC(=O)[C@@H]1CSCC(=O)N[C@@H](CC)C(=O)N(C)[C@@H](C)C(=O)N[C@@H](CC(C)C)C(=O)N2CCC[C@H]2C(=O)N(CC)CC(=O)N[C@@H](CC(C)C)C(=O)N(C)[C@H](C)C(=O)N[C@@H](CC(C)C)C(=O)N1C |  |  | hydrocarbon/water |  | logD | -0.652 |
| Nc1cnc(N2CCc3cc(S(=O)(=O)Nc4c(F)cc(Cl)cc4F)cc(N4CCCC4=O)c32)nc1 | Phosphatidylinositol 4,5-bisphosphate 3-kinase catalytic subunit alpha isoform (PIK3CA, Homo sapiens, UniProt P42336, E542K) | cell-free assay, competition with immobilised ligand |  | 1 µM | remaining binding | 72% |
